Published values pooled from the literature.
A part holds a random share of what one study measured.

Sample 1
Target: Fragile X messenger ribonucleoprotein 1, C-terminal low-complexity region (Fmr1, Mus musculus, UniProt P35922)
Technique: RNA Bind-n-Seq
Form: RNA
Medium: in vitro
Tested at: 200 nM
Setting: whole 134-nt RNA, ends assumed
Added: 150 mM LiCl
Reference: input library
Reading: higher = stronger binding
Library: 7-deaza-guanosine replaces G
Sequence	log2 enrichment
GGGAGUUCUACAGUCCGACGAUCCAAGUCCUGUGCUACACAUCGUAUGUACCGAAUCGGCCCGGCCCGGGGCCCGGGGAAAGUAUUAUGUUACGCCGUUCGGAUCUGCACUUCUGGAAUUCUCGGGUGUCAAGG	-1.27
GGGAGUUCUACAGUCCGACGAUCCACAGACAACACGCACCCACACAGACACAGAGGGAAUGGGUUGGGAUGGGGACAGGGUGCACAGCAGGGCGGGGUAGGACCCCAGCCCCUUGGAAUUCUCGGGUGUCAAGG	-1.36
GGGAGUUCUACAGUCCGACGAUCCAAGUCCUGUGCUACACAUCGUAUGUACCGAAUCGGAAAAAGGAAAGGAAAAAGGAAAGUAUUAUGUUACGCCGUUCGGAUCUGCACUUCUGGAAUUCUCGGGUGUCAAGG	-0.766
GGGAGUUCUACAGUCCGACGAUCCCUCAAGUCCUGUGCUACACAUCGUAUGUACCGAAUCGGCGGGGCGGGGCGGGAAAGUAUUAUGUUACGCCGUUCGGAUCUGCACUUCCAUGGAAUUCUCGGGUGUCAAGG	-0.634
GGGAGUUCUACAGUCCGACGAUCCUCAAGUCCUGUGCUACACAUCGUAUGUACCGAAUCGGAAAGGAGGUUUUUGGAAAGUAUUAUGUUACGCCGUUCGGAUCUGCACUUCCAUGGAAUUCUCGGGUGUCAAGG	-0.585
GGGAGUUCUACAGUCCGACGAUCUGGCCCUGGUGGCAUGCGGGGAGGAAGAGGUGGCCUCAUGGAUCGUGGUGGUCCCGGUGGAAUCUUCAGAGGUGGCCGUGGUGGAGACAGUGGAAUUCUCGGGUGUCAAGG	-0.217
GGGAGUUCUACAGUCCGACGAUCCCUCAAGUCCUGUGCUACACAUCGUAUGUACCGAAUCGGCGGGCGGGGCGGGGAAAGUAUUAUGUUACGCCGUUCGGAUCUGCACUUCCAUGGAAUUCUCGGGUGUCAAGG	0.259
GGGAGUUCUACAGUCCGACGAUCGCAGGAAGUAAAAACAAAUGGAAAUGCUUCGGAUAGUGGCAGGGGUGGGGGUUGCUAAGGAAAGGGUAGGAUGGGAGUGGGUAAAGAGUUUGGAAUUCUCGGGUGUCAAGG	1.45
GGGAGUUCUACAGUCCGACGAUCCUCAAGUCCUGUGCUACACAUCGUAUGUACCGAAUCGGAAGGGAAGGAAGGGGAAAGUAUUAUGUUACGCCGUUCGGAUCUGCACUUCCAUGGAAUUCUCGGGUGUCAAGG	-0.112
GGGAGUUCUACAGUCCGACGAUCUUCAUUCCCAAGGGAGGCCAUGUCUGGAGAUAGACCUUGAAUUUAAUAAAUUUUAGGCACUAUACCAUUUCAGUGGAGAAAAUUGUUGGGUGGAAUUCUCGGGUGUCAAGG	-2.66
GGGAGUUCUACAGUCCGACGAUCCCUGUGCUACACAUCGUAUGUACCGAAUCGGGGUUUGGGGAAAAAGGGGAAAAAAAGGGGAAAGUAUUAUGUUACGCCGUUCGGAUCUGCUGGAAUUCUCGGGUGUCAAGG	-0.193

Sample 2
Target: RNA binding protein fox-1 homolog 2, RRM domain, GST-SBP tag (RBFOX2, Homo sapiens, UniProt O43251-10, residues 100-194)
Technique: RNA Bind-n-Seq
Form: RNA
Medium: in vitro
Tested at: 365 nM
Setting: natural RNA segment, single round, ends assumed
Reference: no-protein control
Reading: higher = stronger binding
Target sequence (chain): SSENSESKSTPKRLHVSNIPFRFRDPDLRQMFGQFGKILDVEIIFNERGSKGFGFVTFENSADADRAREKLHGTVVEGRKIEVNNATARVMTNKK
Sequence	RBNS enrichment (R)
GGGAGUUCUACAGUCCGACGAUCUCAUCUCUCGGUACAAAGGAGUUACUAUCAUAUAAAGACUCAUCUGAAAGAAUUGUUAAUGAAACCUCAUUCUUUAUGUUUAUCUCAGUGUCUCUUUACAUGGAUAUUUUUGGAAUUCUCGGGUGCCAA	0.317
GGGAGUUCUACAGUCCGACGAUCGUAGCAAGACCCCCUCCUCCCCUCUACCACCCCCCCCAAGGGUCCAGGGGUCCUACUCGCUUCCCCCCUGCUCAUACCUUGCCUAUGGAGACAUGAGAGGGCAGAAUCCUUGGAAUUCUCGGGUGCCAA	0.421
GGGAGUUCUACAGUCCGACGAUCUUUAAAUGUAGUUUGUAUUGUACUGGGGGACCUUUCGUUGUUGUUGUUUGCUUAAACUGUGAUUUUUUUUCCCCUCCCUAAUUUCAGGGGUGAGAUUGACUUUGGGAAGAUGGAAUUCUCGGGUGCCAA	9.7
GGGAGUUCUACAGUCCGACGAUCAUGUCCUUUAUAAGGUAUACUUGGAUUGGCCGAGACCUGGCCUGGCAUCAGGAGUCCAAACCUCUGAGGUCUGAUCUCUGCUCUGUCAAGGACUUUCGGCAAGUCUCGUGUGGAAUUCUCGGGUGCCAA	0.692
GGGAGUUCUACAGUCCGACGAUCCUGUAGGAGUGGGUCUCACAGUUAUCCAGCCCUGUGAUACUUGGGUUGACCCCAUGUUUCAGAUCCUGGAACAAGCAUCCAAGAGUAACAGAACUUUCUGAGCUGGCAAAUGGAAUUCUCGGGUGCCAA	0.257
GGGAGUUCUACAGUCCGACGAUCGAAACCAAAGAUAAACUCUGGAGGGAUCUCCUGCUGCCUUGCUUUCUUUCCUCCCUAAUUCCAAAAACCACAAAGGUUUCCCUGAGUGCAGAGAGAUCAGCCCACCCUGCUGGAAUUCUCGGGUGCCAA	0.504
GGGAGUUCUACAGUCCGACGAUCGCCUUUGCUGACCGUUUUGGGGUUCCCCGCCGGAGCUACAGGGGCAUUUUCUUCCCUAAAACCAACAGUGUCCCACUGACCUCCCCAAGUGUUUGCUGCGUGGCAGAUUUUGGAAUUCUCGGGUGCCAA	0.562
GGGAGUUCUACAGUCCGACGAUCAAUCAUAGGGGCAGUUUCUCCCAUACUGUUCUGGUGGUAGUGAAUAAGUCUCACGAGAUCUGAUGGUUUAAUAAGGGGUUUCCCCUUUUGCUUGGCUCUCAUUCUCUCUUUGGAAUUCUCGGGUGCCAA	0.26
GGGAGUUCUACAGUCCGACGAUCUUUCCCCUGUCCUGAUGGUCAGCUCCCUUCUCUGUAGGGAACUCUGGGGUCCCCCAUCCCCAUCCUCCAGCUUCUGGUACUCUCCUAGAGACAGAAGCAGGCUGGAGGUAUGGAAUUCUCGGGUGCCAA	0.257
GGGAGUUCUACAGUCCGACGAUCGCUUGGCUAUGGCCCUGUGUGACUCCAGGUCCCAGGAACCUUGCCUUCGUCAUCUGUGGAUCCAUCCAGAACAGCGGUAUCUGAAGCCCAGGCCAUACUCCCUGCCUCCUUGGAAUUCUCGGGUGCCAA	0.215
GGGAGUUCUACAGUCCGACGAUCGUAACCCGGGAGUGUUCCCAGGUGGCCUUAGAAAGCAAAGCUUGUAACUGGCAAGGGAUGAUGUCAGAUUCAGCCCAAGGUUCCUCCUCUCCUACCAAGCAGGAGGCCAGUGGAAUUCUCGGGUGCCAA	1.32
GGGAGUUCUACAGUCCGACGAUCGUUAGAAGAAAACAAUCACAAAACUGAAGCCUAGAGAGAAACUGUCCUAGUUGUCCAGGGAUAAAAAUCAUAUAGACCAAUUGAAGCAUGAACGUGGAUUGUAUUUAAGAUGGAAUUCUCGGGUGCCAA	9.86

Sample 3
Target: Interferon regulatory factor 5, full length, phosphomimetic (IRF5, Homo sapiens, UniProt Q13568-2, residues 1-514, K96S/S451D/S453D/S456D/S462D)
Technique: protein-binding microarray
Form: double-stranded DNA, one strand shown
Medium: in vitro
Tested at: 250 nM
Setting: 60-bp whole probe
Added: salmon DNA 0.4 mg/ml
Reference: random background probes
Reading: higher = stronger binding
All sequences stand within: GCCTAGCAC … GTCTTGATTCGCTTGACGCTGCTG
Sequence	log fluorescence
CTGAGTCCCTATCTCCTCACGTGCTAG	-0.342 z-score
GACGATTTCGAGACTGGAGACGTGCTA	1.29 z-score
GACGATTTCAGTTCAGAGACGTGCTAG	1.34 z-score
TCATTTTTTTAATTGAGACTGTGCTAG	0.606 z-score
GACGGACTGGGGTATCGTGACGTGCTA	-0.451 z-score
GACGGTTTCCTTTTCGTGACGTGCTAG	1.4 z-score
TTAGGAATCGGGACTGGGTTAGTGCTA	-0.16 z-score
TCACATATCGGGGTGCGCACTGTGCTA	0.692 z-score
TCACATATGCTTTTTAGACTGTGCTAG	0.446 z-score
TTAGATTTCAGTTTCGATAAGTGCTAG	10.1 z-score
TTAGGTTGCCTTCTCCTTTAGTGCTAG	0.128 z-score
GACGAGCTCAGACTGGAGACGTGCTAG	-0.614 z-score
GAAGATATCAGACTGGAGACGTGCTAG	0.152 z-score
TCACAGAAGGGAAACAGGACTGTGCTA	0.254 z-score
GACGGTTACCTTATCCTGACGTGCTAG	-0.135 z-score
ATAGATTTCGGGACTGGATTAGTGCTA	2.12 z-score
AATAAAATGAATATTAGAAGGTGCTAG	0.599 z-score

Sample 4
Target: RING finger protein unkempt homolog, zinc fingers 1-6, SBP tag (UNK, Homo sapiens, UniProt Q9C0B0, residues 30-357)
Sequence of UniProt Q9C0B0 (30-357, looked up): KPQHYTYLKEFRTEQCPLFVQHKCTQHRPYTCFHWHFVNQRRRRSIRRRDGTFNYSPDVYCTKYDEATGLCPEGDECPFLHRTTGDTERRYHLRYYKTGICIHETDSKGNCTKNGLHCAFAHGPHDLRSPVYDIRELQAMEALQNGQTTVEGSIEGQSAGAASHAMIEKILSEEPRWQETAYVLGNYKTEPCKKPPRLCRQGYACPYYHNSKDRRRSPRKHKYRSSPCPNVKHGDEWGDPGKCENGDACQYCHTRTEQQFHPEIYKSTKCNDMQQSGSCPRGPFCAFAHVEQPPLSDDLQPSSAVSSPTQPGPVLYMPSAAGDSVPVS
Technique: RNA Bind-n-Seq
Form: RNA
Medium: in vitro
Tested at: 100 nM
Setting: RNA with constant flanks, vertebrate orthologous sites, ends assumed
Reference: input RNA pool
Reading: higher = stronger binding
Sequence	bound/input enrichment [ratio]
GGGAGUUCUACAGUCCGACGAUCCCAGUCUUCCACUUAGGGUCAGCCUCAGAUCUAUAGGAUUUAUGACAAAUGUAUUAUAUCUAGUUGAGUUGAGUUGAGUUUAAUAUUUUUUUAUUAGCUUGUAAAUAAAGUUGGCAUCUUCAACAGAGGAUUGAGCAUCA	1.41
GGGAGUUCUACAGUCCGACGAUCUAGUUUGUUUUUAAUUUCAAGCAAAAAAAUCUUAUUGUACUUGAAUGUGUCCUGUUUUGUUAGCACACCUAGACUUGCUGUAACUGUACUCAUGUCCCAGUAUGUACGUUCUUUCUAUGACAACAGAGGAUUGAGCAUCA	0.93
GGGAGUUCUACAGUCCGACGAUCUCCUGAACGUGUUCUAGCUUGUGAUCCUUCAAAGAUGGGUUAUGCGUUAAUUCUAGGUACUAGAAAUGUUUGCGUCUCUCUUUCCACUGAUUAGAGAAACAGGCAUCAAAAAGAGAAAUACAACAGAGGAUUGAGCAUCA	0.246
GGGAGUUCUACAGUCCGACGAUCUGCUGUUAAUGCACUGUAUACCAGGCAUCGUCUGAUCUUAGUGUAAUCUAGGAGAUUUUAUAGUUUUAUUUUAAUGAAGUAUGGAUUGAUGCAAAGCUGUUAGGAAAACGUAGUCUUUUACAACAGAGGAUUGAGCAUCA	2.58
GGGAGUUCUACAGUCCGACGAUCAUCCCUCAGUGACAGUAUGCCUUCAGUGGCUGAUUCCCACUCAAGUCAUUUCUCUGAAUUUAGUUGUUCUGACCUGGAAAGUAUGAAAACUUCCUGUAGUCAUGGUUCCAGUGAUUACCACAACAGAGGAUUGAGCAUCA	0.536
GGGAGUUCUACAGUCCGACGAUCAUCCCUCAGUGACAGUAUGCCAUCUGUAGCAGAUUCCCACUCUAGCCAUUUUUCUGAAUUUAGUUGUUCUGACCUAGAAAGCAUGAAAACUUCUUGUAGUCAUGGUUCCAAUGAUUAUCACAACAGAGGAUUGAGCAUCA	4.01
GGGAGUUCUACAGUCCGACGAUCUUCAGGCACAACUGACUGGUUCACAGCAUUCCUUACAUAGUUAUCUAUCAAAUGCAAGUGUAGUUAGUUUUCCCGAAACAACCAGGCAGUCCUCUUUAUCCUGUAGCUCAAUUGGAGAUUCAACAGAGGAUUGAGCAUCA	1.58
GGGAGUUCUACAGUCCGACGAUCACUGAUUGAUUCUCAGUCUCUUCUGCCCUGUCCUGAUUUUAAAAGCCCUUUCUUUUCUUUUAGGCAUAUGUAGUAAUAGCAGAAAGAUUUAAUUUGGGCAACUUUGAUUCUUAAAAAAACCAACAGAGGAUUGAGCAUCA	0.331
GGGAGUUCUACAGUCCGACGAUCGAUUUGGACCUUGGAGCUGAACCAGGGAGCUAGCAAAAGUAAAGCAGACUUAUAAAAUUAUAGCUAUGUGCAGCUGCACAACACAGUCCUUCCACUAGCAGCUGUGUUAAAGUAUUUAUACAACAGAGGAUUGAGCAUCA	0.804
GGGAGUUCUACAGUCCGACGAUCCUACUAUAAACAACUCAGGGCAGUAUUCUCGAUAUCCUUACAGUAACCUAAAUCAGGGAUUAGUUAACAAUACAGGGAUGAAUCAGAAUUUAGGCCUUACAAAUAACACUCCAAUGAAUCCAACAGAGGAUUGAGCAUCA	1.14
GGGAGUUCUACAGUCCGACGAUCGUGACUUUGGAAGUCCGCACUGUCUCAUUGCAGAUACUACUUAGCUCAGGGCCUGGUGGCUAGACAGCUUCUCUCCUUUCCAGUCGGAGGCCUCUGCCGCAAACAUGCUCCGCCAGAUCCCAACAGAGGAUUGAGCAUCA	0.556

For quick reference, copied from above (sample 3):
Sequence	log fluorescence
TCACATATGCTTTTTAGACTGTGCTAG	0.446 z-score
GACGGTTTCCTTTTCGTGACGTGCTAG	1.4 z-score
TTAGGTTGCCTTCTCCTTTAGTGCTAG	0.128 z-score
